{"data": "Published values collected from several papers", "note": "Numbered parts are unrelated; each lists some results of a single study.", "sequence of UniProt P51813 (whole entry, looked up)": "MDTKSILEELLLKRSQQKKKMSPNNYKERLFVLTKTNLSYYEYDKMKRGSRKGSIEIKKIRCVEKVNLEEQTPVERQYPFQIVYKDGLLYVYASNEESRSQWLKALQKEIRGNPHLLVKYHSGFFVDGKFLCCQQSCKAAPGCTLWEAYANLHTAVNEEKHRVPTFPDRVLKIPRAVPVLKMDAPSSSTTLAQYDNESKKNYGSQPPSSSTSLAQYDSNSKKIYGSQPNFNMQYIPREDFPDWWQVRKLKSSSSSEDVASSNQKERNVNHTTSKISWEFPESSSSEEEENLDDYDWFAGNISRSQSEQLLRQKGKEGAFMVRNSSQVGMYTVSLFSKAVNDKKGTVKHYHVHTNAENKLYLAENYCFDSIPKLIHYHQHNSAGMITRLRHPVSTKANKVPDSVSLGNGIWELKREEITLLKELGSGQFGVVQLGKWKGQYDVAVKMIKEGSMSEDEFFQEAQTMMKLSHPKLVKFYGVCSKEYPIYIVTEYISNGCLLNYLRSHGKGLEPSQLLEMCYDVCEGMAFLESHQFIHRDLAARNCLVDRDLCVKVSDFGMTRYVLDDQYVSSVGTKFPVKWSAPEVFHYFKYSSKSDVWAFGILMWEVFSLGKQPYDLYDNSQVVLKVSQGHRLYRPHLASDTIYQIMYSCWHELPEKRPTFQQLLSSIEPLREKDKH", "sequence of UniProt P29320 (whole entry, looked up)": "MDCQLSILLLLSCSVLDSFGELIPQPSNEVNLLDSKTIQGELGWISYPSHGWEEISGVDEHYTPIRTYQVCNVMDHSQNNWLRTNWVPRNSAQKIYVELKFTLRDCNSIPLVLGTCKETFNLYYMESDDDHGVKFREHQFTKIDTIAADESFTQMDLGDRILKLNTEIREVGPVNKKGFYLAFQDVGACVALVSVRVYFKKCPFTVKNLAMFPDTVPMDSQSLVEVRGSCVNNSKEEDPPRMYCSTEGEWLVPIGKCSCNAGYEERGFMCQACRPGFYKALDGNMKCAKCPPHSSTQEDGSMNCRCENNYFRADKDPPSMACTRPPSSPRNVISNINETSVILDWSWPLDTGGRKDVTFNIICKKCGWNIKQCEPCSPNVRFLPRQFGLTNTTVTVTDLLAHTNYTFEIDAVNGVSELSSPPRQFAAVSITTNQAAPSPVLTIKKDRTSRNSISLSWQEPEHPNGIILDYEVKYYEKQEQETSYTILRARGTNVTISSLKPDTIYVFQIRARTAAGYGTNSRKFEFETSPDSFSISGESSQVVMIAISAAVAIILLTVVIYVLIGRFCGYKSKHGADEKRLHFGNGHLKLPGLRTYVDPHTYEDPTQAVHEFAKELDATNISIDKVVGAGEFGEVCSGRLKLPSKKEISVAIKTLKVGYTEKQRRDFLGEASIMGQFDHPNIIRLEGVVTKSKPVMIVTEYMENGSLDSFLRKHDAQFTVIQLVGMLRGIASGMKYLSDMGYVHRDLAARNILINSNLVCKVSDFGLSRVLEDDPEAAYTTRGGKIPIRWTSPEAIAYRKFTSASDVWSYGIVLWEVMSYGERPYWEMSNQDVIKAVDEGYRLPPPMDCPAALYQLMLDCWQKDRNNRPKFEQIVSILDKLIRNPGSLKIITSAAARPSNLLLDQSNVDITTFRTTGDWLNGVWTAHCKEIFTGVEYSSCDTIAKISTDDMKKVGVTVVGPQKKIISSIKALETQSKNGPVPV", "sequence of UniProt Q13546 (whole entry, looked up)": "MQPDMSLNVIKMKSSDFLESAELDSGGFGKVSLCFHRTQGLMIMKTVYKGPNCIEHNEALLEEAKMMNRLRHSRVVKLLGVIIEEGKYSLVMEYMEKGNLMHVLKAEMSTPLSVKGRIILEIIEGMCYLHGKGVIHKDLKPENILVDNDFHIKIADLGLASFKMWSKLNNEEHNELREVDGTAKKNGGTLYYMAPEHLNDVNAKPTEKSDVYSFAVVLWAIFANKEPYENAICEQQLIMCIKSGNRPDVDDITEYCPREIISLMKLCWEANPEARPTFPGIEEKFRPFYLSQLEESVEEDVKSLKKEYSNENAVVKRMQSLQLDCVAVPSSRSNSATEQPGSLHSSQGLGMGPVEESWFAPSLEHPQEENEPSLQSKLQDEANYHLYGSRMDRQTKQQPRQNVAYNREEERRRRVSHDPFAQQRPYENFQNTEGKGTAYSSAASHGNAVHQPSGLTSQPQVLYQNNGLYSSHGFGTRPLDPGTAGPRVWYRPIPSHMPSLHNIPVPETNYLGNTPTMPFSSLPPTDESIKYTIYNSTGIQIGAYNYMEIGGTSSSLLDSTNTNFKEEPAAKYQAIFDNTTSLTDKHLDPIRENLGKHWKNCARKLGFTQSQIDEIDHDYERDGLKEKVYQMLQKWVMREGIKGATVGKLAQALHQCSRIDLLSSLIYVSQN", "sequence of UniProt P30291 (whole entry, looked up)": "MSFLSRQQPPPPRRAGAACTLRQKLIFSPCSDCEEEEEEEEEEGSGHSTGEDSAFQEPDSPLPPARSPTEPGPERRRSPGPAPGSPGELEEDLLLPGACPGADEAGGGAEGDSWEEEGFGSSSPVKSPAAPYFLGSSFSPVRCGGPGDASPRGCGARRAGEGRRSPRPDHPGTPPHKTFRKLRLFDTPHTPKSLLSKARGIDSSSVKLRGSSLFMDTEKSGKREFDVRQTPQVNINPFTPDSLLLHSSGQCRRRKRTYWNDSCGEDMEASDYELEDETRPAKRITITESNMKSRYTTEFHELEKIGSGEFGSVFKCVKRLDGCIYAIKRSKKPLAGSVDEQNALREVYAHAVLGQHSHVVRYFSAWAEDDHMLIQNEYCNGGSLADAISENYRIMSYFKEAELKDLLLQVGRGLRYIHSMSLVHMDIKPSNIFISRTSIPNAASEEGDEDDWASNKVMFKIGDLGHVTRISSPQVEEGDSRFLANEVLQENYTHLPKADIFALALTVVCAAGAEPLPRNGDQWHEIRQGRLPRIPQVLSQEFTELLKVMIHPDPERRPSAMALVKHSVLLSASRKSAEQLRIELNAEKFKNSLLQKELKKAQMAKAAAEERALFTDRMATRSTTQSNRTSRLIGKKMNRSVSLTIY", "sequence of UniProt Q9HC98 (whole entry, looked up)": "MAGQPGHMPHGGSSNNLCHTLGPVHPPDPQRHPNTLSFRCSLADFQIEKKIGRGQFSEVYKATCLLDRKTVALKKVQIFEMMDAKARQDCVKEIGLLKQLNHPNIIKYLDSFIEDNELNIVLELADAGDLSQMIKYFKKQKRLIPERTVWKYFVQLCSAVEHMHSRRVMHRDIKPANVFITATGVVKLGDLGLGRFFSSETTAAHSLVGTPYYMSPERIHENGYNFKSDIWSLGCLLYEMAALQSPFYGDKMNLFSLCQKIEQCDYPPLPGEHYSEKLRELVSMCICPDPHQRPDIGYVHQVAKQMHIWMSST", "sequence of UniProt P00519 (whole entry, looked up)": "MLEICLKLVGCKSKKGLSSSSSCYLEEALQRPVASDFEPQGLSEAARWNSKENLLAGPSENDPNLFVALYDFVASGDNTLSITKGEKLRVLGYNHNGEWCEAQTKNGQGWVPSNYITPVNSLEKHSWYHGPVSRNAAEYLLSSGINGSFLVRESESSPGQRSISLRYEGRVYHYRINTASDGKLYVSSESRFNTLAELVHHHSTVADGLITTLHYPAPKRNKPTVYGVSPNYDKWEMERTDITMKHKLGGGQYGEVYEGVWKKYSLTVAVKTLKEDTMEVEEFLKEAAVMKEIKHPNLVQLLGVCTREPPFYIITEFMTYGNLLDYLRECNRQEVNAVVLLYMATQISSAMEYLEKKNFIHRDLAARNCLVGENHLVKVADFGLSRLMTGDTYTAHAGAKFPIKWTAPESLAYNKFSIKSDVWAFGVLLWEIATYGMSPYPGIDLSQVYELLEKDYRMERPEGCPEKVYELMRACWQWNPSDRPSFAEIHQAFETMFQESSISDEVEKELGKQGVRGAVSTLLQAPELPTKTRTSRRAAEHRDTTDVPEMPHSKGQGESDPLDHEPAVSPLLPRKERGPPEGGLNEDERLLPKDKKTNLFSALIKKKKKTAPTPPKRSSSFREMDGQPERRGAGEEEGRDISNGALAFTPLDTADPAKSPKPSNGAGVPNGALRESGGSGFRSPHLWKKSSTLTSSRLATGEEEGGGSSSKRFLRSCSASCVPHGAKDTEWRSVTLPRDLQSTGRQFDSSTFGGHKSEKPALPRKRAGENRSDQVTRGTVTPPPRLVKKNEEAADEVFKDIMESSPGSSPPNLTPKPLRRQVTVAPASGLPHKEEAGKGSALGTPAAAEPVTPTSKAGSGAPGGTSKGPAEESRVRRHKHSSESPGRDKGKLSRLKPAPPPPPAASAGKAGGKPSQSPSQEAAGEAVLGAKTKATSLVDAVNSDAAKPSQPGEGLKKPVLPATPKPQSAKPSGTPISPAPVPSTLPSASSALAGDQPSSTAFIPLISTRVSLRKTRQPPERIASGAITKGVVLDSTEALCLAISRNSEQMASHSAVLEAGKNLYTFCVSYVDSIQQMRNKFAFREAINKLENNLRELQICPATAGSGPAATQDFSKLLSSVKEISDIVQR", "sequence of UniProt P31749 (whole entry, looked up)": "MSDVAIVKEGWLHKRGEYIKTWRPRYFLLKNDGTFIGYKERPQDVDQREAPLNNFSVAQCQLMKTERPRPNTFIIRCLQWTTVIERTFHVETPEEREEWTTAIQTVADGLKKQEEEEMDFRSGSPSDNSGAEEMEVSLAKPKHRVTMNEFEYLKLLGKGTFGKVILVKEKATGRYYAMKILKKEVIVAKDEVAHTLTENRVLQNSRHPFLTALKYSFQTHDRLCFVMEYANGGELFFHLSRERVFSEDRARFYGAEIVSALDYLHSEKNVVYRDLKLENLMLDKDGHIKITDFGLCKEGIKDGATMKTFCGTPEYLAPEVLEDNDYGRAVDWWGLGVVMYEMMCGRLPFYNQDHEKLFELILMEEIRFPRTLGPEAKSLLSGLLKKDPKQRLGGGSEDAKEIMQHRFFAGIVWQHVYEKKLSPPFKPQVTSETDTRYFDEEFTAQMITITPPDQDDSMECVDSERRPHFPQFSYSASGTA"}
{"data": "Study 1", "SMILES": "O=C(NS(=O)(=O)c1ccc(NCC2CCOCC2)c([N+](=O)[O-])c1)c1ccc(N2CCN(Cc3ccc(C(F)(F)F)cc3-c3ccc(Cl)cc3)CC2)cc1Oc1cnc2[nH]ccc2c1", "effect on": "cell-free assay", "technique": "competition with immobilised ligand", "concentration": "1 µM"}
{"target": "Tyrosine-protein kinase ABL1, non-phosphorylated (ABL1, Homo sapiens, UniProt P00519)", "remaining binding": "100%"}
{"target": "Receptor tyrosine-protein kinase erbB-3 (ERBB3, Homo sapiens, UniProt P21860)", "remaining binding": "100%"}
{"target": "Epidermal growth factor receptor (EGFR, Homo sapiens, UniProt P00533, L861Q)", "remaining binding": "93%"}
{"target": "Mast/stem cell growth factor receptor Kit (KIT, Homo sapiens, UniProt P10721, A829P)", "remaining binding": "99%"}
{"target": "Cytoplasmic tyrosine-protein kinase BMX (BMX, Homo sapiens, UniProt P51813)", "remaining binding": "100%"}
{"target": "Epidermal growth factor receptor (EGFR, Homo sapiens, UniProt P00533, del752-759)", "remaining binding": "81%"}
{"target": "Uncharacterized serine/threonine-protein kinase SBK3 (SBK3, Homo sapiens, UniProt P0C264)", "remaining binding": "100%"}
{"target": "Dual specificity protein kinase CLK4 (CLK4, Homo sapiens, UniProt Q9HAZ1)", "remaining binding": "100%"}
{"target": "Receptor-interacting serine/threonine-protein kinase 1 (RIPK1, Homo sapiens, UniProt Q13546)", "remaining binding": "99%"}
{"target": "RAC-alpha serine/threonine-protein kinase (AKT1, Homo sapiens, UniProt P31749)", "remaining binding": "74%"}
{"target": "Epidermal growth factor receptor (EGFR, Homo sapiens, UniProt P00533, G719S)", "remaining binding": "76%"}
{"data": "Study 2", "target": "Runt-related transcription factor 1, full length (RUNX1, Homo sapiens, UniProt Q01196-8, residues 1-480)", "technique": "protein-binding microarray", "form": "hairpin DNA", "medium": "in vitro", "concentration": "not given", "notes": "whole hairpin DNA, median over replicate spots", "baseline": "not given", "reading": "higher = stronger binding"}
{"Sequence": "GAGGCCTGTTGCGGTCGGCCTCCTGGCCGACCGCAACAGGCCTCACACTC (5mC at 16)", "median fluorescence": "4060 a.u."}
{"Sequence": "GAGGCCGAACCGCAACAGCCTCCTGGCTGTTGCGGTTCGGCCTCACACTC (5mC at 38)", "median fluorescence": "3800 a.u."}
{"Sequence": "CTCAGTTCTTTGGGCTGGACTCCTGTCCAGCCCAAAGAACTGAGACACTC", "median fluorescence": "1660 a.u."}
{"Sequence": "GAGGCCTGTCGCGCGTGGCCTCCTGGCCACGCGCGACAGGCCTCACACTC (5mC at 14)", "median fluorescence": "1990 a.u."}
{"Sequence": "GAGGCCTGTTGCCGTTGGCCTCCTGGCCAACGGCAACAGGCCTCACACTC (5mC at 13 31)", "median fluorescence": "1760 a.u."}
{"Sequence": "CTCAGTTCTGTGGGCGGGACTCCTGTCCCGCCCACAGAACTGAGACACTC (5mC at 29)", "median fluorescence": "2430 a.u."}
{"Sequence": "GAGGCCCAACCCGAACAGCCTCCTGGCTGTTCGGGTTGGGCCTCACACTC (5mC at 32)", "median fluorescence": "1940 a.u."}
{"Sequence": "CTCAGTTCTGTGGGCGGGACTCCTGTCCCGCCCACAGAACTGAGACACTC (5mC at 15 29)", "median fluorescence": "2250 a.u."}
{"data": "Study 3", "target": "RNA binding protein fox-1 homolog 2, RRM domain, GST-SBP tag (RBFOX2, Homo sapiens, UniProt O43251-10, residues 100-194)", "technique": "RNA Bind-n-Seq", "form": "RNA", "medium": "in vitro", "concentration": "365 nM", "notes": "natural RNA segment, single round, ends assumed", "baseline": "no-protein control", "reading": "higher = stronger binding", "all sequences stand within": "GGGAGUUCUACAGUCCGACGAUC … UGGAAUUCUCGGGUGCCAA", "Construct (chain)": "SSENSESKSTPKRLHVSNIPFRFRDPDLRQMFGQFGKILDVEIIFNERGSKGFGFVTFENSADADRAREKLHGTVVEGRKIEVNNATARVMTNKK"}
{"Sequence": "AGCCUGUGUUAGAGCACAGAUUUACCUAGGCUUGAAGAUUUGGAAGAAAUAAUAUGUAAGAAUGGCCUCAAGGCAGACCACUUUAAGUUUGGCUAGACUUCAUAUCGUGG", "RBNS enrichment (R)": 0.508}
{"Sequence": "AAGCUGAAGACUCCAGACACUGUCUGUGUGACUGUAACAUUUCUUCAAGGAAAGUAUAGCGUCUAUGGAGUUCAGAGGGCACGUGUUUGGGGGAAAAUAUAUAUGACAUG", "RBNS enrichment (R)": 0.774}
{"Sequence": "GCACUGUCAUCAUCACCCAUAAUGCCUGCAAAGGCCUAGCGGUCCUCAGCCCUGCACAUGAGAGAGGCACAGAGUCUGUCAGCACAAACAGGAAGCAGCUGGGCUUUUAA", "RBNS enrichment (R)": 0.859}
{"Sequence": "GCUCAAGCAAUCCUCCCACUUUAGCCUCCUGAGUAGCUGGGACUACAGGCGUGUGCCAGCGCGCCUGGCUAAUUUUAAAAUUUUUUUGUAGAGACAGAGUCUCCCUCUGU", "RBNS enrichment (R)": 0.525}
{"Sequence": "UUUCAUAAUGGAAUGAUUUAAAUUGAAGUGACAAAGAGUAUUAUUAAAAUACAAUGUUUAUACGUCUUUUGUGUAUUGUAGAUGUAUCAAGUGAUUUCUAAUUUUUUUCA", "RBNS enrichment (R)": 3.85}
{"Sequence": "GCCUUGGCAGGUGCAGUUUGCAGUUCACUGCAGCUCCCUCCCCCUUUUGUUUCCUCAAUUUAAGCAGAGGUUGUGCCAGCUGUAGAAACUUCAGUCCCUCAGGCUGGCAG", "RBNS enrichment (R)": 0.383}
{"Sequence": "AACAGUGUUGCUGUGACUUCAGAGACAAGCCUGGAAGGGGCACCUUAGGAAGCCCCUUCGCUUCAGUUGCUCGCUUCUGGGUGUGCUCCCUUCGAAGGCCCAGAUAAGAC", "RBNS enrichment (R)": 0.257}
{"Sequence": "UAAAUUAAGAAGAUAGAACAAAGAGAAAGACAUUAAUGUUACCUAAGAAACACAUUUAACAUCCGAAGAAGCAAUGCUGUCCUCACUUGAUGUUUCUCUUCUCAACCCAG", "RBNS enrichment (R)": 0.303}
{"data": "Study 4", "SMILES": "c1ccc(-c2n[nH]c3c2oc2ccccc23)cc1", "effect on": "enzyme activity", "action": "inhibitor", "concentration": "0.5 µM", "baseline": "control"}
{"target": "Dual specificity mitogen-activated protein kinase kinase 2 (MAP2K2, Homo sapiens, UniProt P36507)", "remaining activity": "85.8%"}
{"target": "Serine/threonine-protein kinase ULK2 (ULK2, Homo sapiens, UniProt Q8IYT8)", "remaining activity": "96.4%"}
{"target": "Mitogen-activated protein kinase 3 (MAPK3, Homo sapiens, UniProt P27361)", "remaining activity": "87.3%"}
{"target": "Casein kinase I isoform gamma-2 (CSNK1G2, Homo sapiens, UniProt P78368)", "remaining activity": "86.4%"}
{"target": "Serine/threonine-protein kinase A-Raf (ARAF, Homo sapiens, UniProt P10398)", "remaining activity": "93.8%"}
{"target": "Fibroblast growth factor receptor 3 (FGFR3, Homo sapiens, UniProt P22607)", "remaining activity": "97.5%"}
{"target": "Mitogen-activated protein kinase kinase kinase 14 (MAP3K14, Homo sapiens, UniProt Q99558)", "remaining activity": "71.8%"}
{"target": "Ephrin type-A receptor 3 (EPHA3, Homo sapiens, UniProt P29320)", "remaining activity": "104%"}
{"target": "Wee1-like protein kinase (WEE1, Homo sapiens, UniProt P30291)", "remaining activity": "92.6%"}
{"target": "Activin receptor type-1B (ACVR1B, Homo sapiens, UniProt P36896)", "remaining activity": "96.6%"}
{"target": "Serine/threonine-protein kinase Nek6 (NEK6, Homo sapiens, UniProt Q9HC98)", "remaining activity": "99%"}
{"target": "Tyrosine-protein kinase Mer (MERTK, Homo sapiens, UniProt Q12866)", "remaining activity": "80%"}
{"target": "Angiopoietin-1 receptor (TEK, Homo sapiens, UniProt Q02763)", "remaining activity": "96.8%"}
{"note": "A few entries again (study 1):"}
{"target": "Uncharacterized serine/threonine-protein kinase SBK3 (SBK3, Homo sapiens, UniProt P0C264)", "remaining binding": "100%"}
{"target": "Epidermal growth factor receptor (EGFR, Homo sapiens, UniProt P00533, L861Q)", "remaining binding": "93%"}
{"target": "Epidermal growth factor receptor (EGFR, Homo sapiens, UniProt P00533, G719S)", "remaining binding": "76%"}
{"target": "Cytoplasmic tyrosine-protein kinase BMX (BMX, Homo sapiens, UniProt P51813)", "remaining binding": "100%"}
{"target": "Epidermal growth factor receptor (EGFR, Homo sapiens, UniProt P00533, del752-759)", "remaining binding": "81%"}
{"target": "Receptor tyrosine-protein kinase erbB-3 (ERBB3, Homo sapiens, UniProt P21860)", "remaining binding": "100%"}
